Experimental data gathered from unrelated publications.
Each line is one published result; not all experiments were run side by side. Values joined by “and” are separate records of one study, mostly repeats; a detail may differ. Numbers after ± are the reported error.
Rhomboid protease AarA: Rhomboid protease AarA (Providencia stuartii, UniProt P46116)
CASP1: Caspase-1 (CASP1, Homo sapiens, UniProt P29466)
HSP90AA1 N-terminal domain: Heat shock protein HSP 90-alpha, N-terminal domain (HSP90AA1, Homo sapiens, UniProt P07900)
T1: G-quadruplex RNA, G-quadruplex (Homo sapiens); GGGAGGGGCGGGUCUGGG
T2: ssRNA, hairpin with 1x1 G/G internal loops (Homo sapiens); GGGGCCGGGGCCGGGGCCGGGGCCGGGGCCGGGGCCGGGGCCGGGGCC

For CC(=O)N1c2ccc(-c3ccc(CNC(=O)c4cn5cc(-c6cnc(N)nc6)nc(N6CCOCC6)c5n4)cc3)cc2CC[C@@H]1C, the remaining binding was 88% (Bromodomain and WD repeat-containing protein 1, BD2 (BRWD1, Homo sapiens, UniProt Q9NSI6); binding, competition with immobilised ligand; 10 µM).
For Cc1cc(Cl)cc(-c2ccnc3cc(CN4C(=O)C5C(C4=O)C5(C)C)sc23)c1C[C@@H]1CNCCO1 (some centres unmarked), the binding enthalpy was -19.3 ± 0.87 kcal/mol (Ubiquitin carboxyl-terminal hydrolase 7 (USP7, Homo sapiens, UniProt Q93009, V517F); isothermal titration calorimetry; concentration not given, USP7 V517F).
COC(=O)c1cc2cc3c(cc2oc1=O)N(CC(=O)NC(Cc1ccc(C)cc1)C(=O)NCC=CS(=O)(=O)c1ccccc1)CCC3 (centres unmarked) has a kinact/Ki of 12000 M⁻¹ s⁻¹ (Procathepsin L (CTSL, Homo sapiens, UniProt P07711); inhibitor; added: Z-Phe-Arg-pNA).
CCCCCC=CC=C1C(=O)C=CC1CC=CCCCC(=O)O (centres unmarked) — result for “isoTOP-ABPP competition ratio”: 1.6 (Nuclear pore complex protein Nup155 (Homo sapiens, UniProt O75694); competitive isoTOP-ABPP, refers to: NUP155 cysteine peptide; proteome, soluble, MDA-MB-231; 100 µM, added: iodoacetamide probe; reference: DMSO over compound-treated, higher = stronger cysteine blockade).
COc1ccc(Cl)cc1C(=O)NC(C(F)(F)F)C(F)(F)F — result for IC50: “inactive” (Rhomboid protease AarA; enzyme activity, inhibitor, fluorogenic peptide substrate).
C#CCCC1(CCC(=O)NCC2CN(CCCCCNC(=O)CN(CCN)C(=O)Cn3cnc4c(=O)[nH]c(N)nc43)CCN(CCCCCNC(=O)CN(CCN)C(=O)Cn3cnc4c(=O)[nH]c(N)nc43)CCN(CCCCCNC(=O)CN(CCN)C(=O)Cn3cnc4c(=O)[nH]c(N)nc43)CCN2CCCCCNC(=O)CN(CCN)C(=O)Cn2cnc3c(=O)[nH]c(N)nc32)N=N1 (centres unmarked) — result for “change in melting temperature”: 12.8 °C (T1, G-quadruplex RNA, G-quadruplex (Homo sapiens); FRET melting).
Cc1c(C)n(-c2ccc(Br)cc2)c2ncnc(N3CCC(C(N)C(=O)N4CCCC4)CC3)c12 (centres unmarked) gave a koff of 0.24 s⁻¹ and 0.171 s⁻¹ and 0.267 s⁻¹ and 0.124 s⁻¹ (Protein-arginine deiminase type-4 (PADI4, Homo sapiens, UniProt Q9UM07); surface plasmon resonance).
The kinase retained of Nc1ncnc2c1c(-c1ccc(Oc3ccccc3)cc1)nn2C1CCCC1 is reported as 2.4 ± 0.5% (Proto-oncogene tyrosine-protein kinase Src (SRC, Gallus gallus, UniProt P00523, Y527F); SH3 domain accessibility, polyproline peptide pull-down; 5 µM).
For CC(C)(O)c1ccn2c(-c3ccc(F)c(-c4ccc(F)cc4C#N)c3)cnc2c1F, “duration of protein increase” read at least 48 h (Gamma-aminobutyric acid receptor subunit alpha-1 (GABRA1, Homo sapiens, UniProt P14867, D219N); total protein level, Western blot; HEK-293T stably expressing GABAA receptors; 5 µM, single dose, added: hispidulin 10 µM).
Under IC50, COC(=O)C(C)C(=O)Nc1ccccc1OCC1CC1 (centres unmarked) is recorded as “inactive” (Rhomboid protease AarA; enzyme activity, inhibitor, fluorogenic peptide substrate).
O=C(N1CCCC1)n1cc(-c2ccc(-c3ccccc3)cc2)nn1 has an activity ratio of 1.12 (Lysosomal protective protein (Ctsa, Mus musculus, UniProt P16675); enzyme activity, inhibitor, competitive ABPP-SILAC, refers to: Ctsa; mouse T-cells; concentration not given, 4 h, treated in situ; reference: DMSO).
CNC(=O)C1CCN(c2cc(C)c(F)cc2NC(=O)c2ccc(-c3cc(O)ccc3C)c(C)c2)CC1 has a remaining binding of 39% (Tyrosine-protein kinase ABL1, non-phosphorylated (ABL1, Homo sapiens, UniProt P00519, Q252H); binding, competition with immobilised ligand; 1 µM).
CC(=O)N[C@@H](Cc1ccc(C)cc1)C(=O)N[C@@H](CCCC(=O)O)C(=O)N[C@H](C(=O)N[C@@H](CC(=O)O)C(=O)COC(=O)c1c(C)cccc1C)C(C)(C)C has a kinact/KI of 49000 M⁻¹ s⁻¹ (CASP1; enzyme activity, inhibitor).
O=C1c2sc(-c3ccc(N4CCC(F)C4)nc3F)nc2CCN1c1cccnc1 (centres unmarked) gave a specific binding of 0.052 nM and 0.046 nM (TAR DNA-binding protein 43, aggregated (TARDBP, Homo sapiens, UniProt Q13148); radioligand binding; human, FTLD-TDP type B sarkosyl-insoluble extract; 1.29 nM).
CC(=O)N[C@@H](CC(C)C)C(=O)N[C@@H](CCC(N)=O)C(=O)N[C@@H](CO)C(=O)N[C@@H](CC(=O)O)C(=O)COC(=O)c1c(C)cccc1C gave a kinact/KI of 359000 M⁻¹ s⁻¹ (CASP1; enzyme activity, inhibitor).
For CCN(CC)C(CO)c1cccc2c(C)c(C)oc12 (centres unmarked), the fold change was 0.999 and 1.03 and 1 and 0.977 and 1.01 (Lysophosphatidic acid receptor 1 (LPAR1, Homo sapiens, UniProt Q92633, W210A); G-protein dissociation, agonist, NanoBiT; HEK-293T; 10 pM, W210A mutant; reference: baseline luminescence).
Under “dissociation rate constant koff”, C=CC(=O)N1CC2(CCN(c3nc(OC4CCN(CCCOC)CC4)nc4c(OCC(F)(F)F)c(-c5c(C)ccc6[nH]ncc56)c(C5CC5)cc34)CC2)C1 is recorded as 0.478 ± 0.0098 s⁻¹ (GTPase KRas, GDP-bound (KRAS, Homo sapiens, UniProt P01116, G12V); SPR).
CCCCCCOc1ccc(C(=O)OCCN2CC=CCC2)cc1 gave a basal binding of 1.03 ± 0.04 fold (Muscarinic acetylcholine receptor M4 (CHRM4, Homo sapiens, UniProt P08173); membranes; 10 µM, 15 h, no carbachol; reference: control).
With CC(C)Oc1cc(Cl)ccc1CNc1cc(-c2ccccc2)nc2ncnn12 the cAMP luminescence was 31500 a.u. and 44600 a.u. and 30500 a.u. and 34500 a.u. (G-protein coupled receptor 3 (GPR3, Homo sapiens, UniProt P46089, M156A); cAMP level, cAMP GloSensor; 1 nM; higher = more cAMP).
The TΔS of CC[C@H](C)[C@H](NC(=O)[C@H](CO)NC(=O)[C@H](CC(N)=O)NC(C)=O)C(=O)N[C@@H](CCCNC(=N)N)C(=O)N[C@@H](CCCCN)C(=O)N[C@@H](Cc1ccccc1)C(=O)N[C@@H](COP(=O)(O)O)C(=O)N[C@H](C(=O)N[C@H](C(=O)N[C@@H](CCC(N)=O)C(=O)N[C@@H](CCCCN)C(=O)N[C@H](C(=O)N1CCC[C@H]1C(=O)NCC(=O)NCC(=O)NCC(=O)NCC(=O)NCC(=O)N[C@@H](CCC(N)=O)C(=O)N[C@@H](C)C(=O)N[C@@H](CCCNC(=N)N)C(=O)N[C@@H](CCCNC(=N)N)C(=O)N[C@@H](CCCNC(=N)N)C(=O)N[C@@H](CCC(N)=O)C(=O)N[C@@H](COP(=O)(O)O)C(=O)N[C@H](C(=O)N[C@@H](CC(C)C)C(=O)N[C@@H](CC(N)=O)C(=O)N[C@@H](CC(C)C)C(=O)N[C@@H](CCSC)C(=O)N[C@H](C(N)=O)[C@@H](C)O)C(C)C)[C@@H](C)O)C(C)C)[C@@H](C)CC is reported as -6.1 kcal/mol (14-3-3 protein beta/alpha (Homo sapiens, UniProt P31946); binding, ITC; 37 °C, added: CFTR R-domain peptide).
With CCCNC(=O)c1ccc2c(c1)CC(=O)N2Cc1cccc(F)c1 the koff was 0.0193 ± 0.0182 s⁻¹ (HSP90AA1 N-terminal domain; SPR, two-state model; N-terminal domain).
The iBAQ abundance of N#CN1CC[C@H](C(=O)Nc2nc3c(s2)CN(C(=O)Cn2cc(CNC(=O)CCCC[C@@H]4SC[C@@H]5NC(=O)N[C@@H]54)nn2)CC3)C1 is reported as 1.01e+06 and 501000 and 1.35e+06 (E3 ubiquitin-protein ligase TRIM33 (Homo sapiens, UniProt Q9UPN9); probe binding, affinity probe, neutravidin pull-down LC-MS/MS; HEK293T, cell lysate; 5 µM, 1 h, single replicate, unit not given; higher = more pulled down).
CC(=O)NCCC(=O)Nc1ccccc1OCC1CC1: IC50 “inactive” (Rhomboid protease AarA; enzyme activity, inhibitor, fluorogenic peptide substrate).
O=C(CN1CCCN(C(=O)CN2CCCN(Cc3cccc4cnccc34)CC2)CC1)NCCCOCCNCCOCCCNC(=O)CN1CCCN(C(=O)CN2CCCN(Cc3cccc4cnccc34)CC2)CC1 has a Kd of 3.3 µM (T2, ssRNA, hairpin with 1x1 G/G internal loops (Homo sapiens); BLI).
The koff of O=c1[nH]c(C(Cl)Cl)nc2sc3c(c12)CCN(Cc1ccccc1)C3 is reported as 0.00481 ± 0.00473 s⁻¹ (HSP90AA1 N-terminal domain; SPR, two-state model; N-terminal domain).
The kinact/KI of CC(=O)N[C@@H](CCC(N)=O)C(=O)N[C@@H](CC(C)C)C(=O)N1CCC[C@H]1C(=O)N[C@@H](CC(=O)O)C(=O)COC(=O)c1c(C)cccc1C is reported as 19000 M⁻¹ s⁻¹ (CASP1; enzyme activity, inhibitor).

Some of these lines once more:
CCCCCCOc1ccc(C(=O)OCCN2CC=CCC2)cc1 gave a basal binding of 1.03 ± 0.04 fold (Muscarinic acetylcholine receptor M4 (CHRM4, Homo sapiens, UniProt P08173); membranes; 10 µM, 15 h, no carbachol; reference: control).
With CC(C)Oc1cc(Cl)ccc1CNc1cc(-c2ccccc2)nc2ncnn12 the cAMP luminescence was 31500 a.u. and 44600 a.u. and 30500 a.u. and 34500 a.u. (G-protein coupled receptor 3 (GPR3, Homo sapiens, UniProt P46089, M156A); cAMP level, cAMP GloSensor; 1 nM; higher = more cAMP).
The TΔS of CC[C@H](C)[C@H](NC(=O)[C@H](CO)NC(=O)[C@H](CC(N)=O)NC(C)=O)C(=O)N[C@@H](CCCNC(=N)N)C(=O)N[C@@H](CCCCN)C(=O)N[C@@H](Cc1ccccc1)C(=O)N[C@@H](COP(=O)(O)O)C(=O)N[C@H](C(=O)N[C@H](C(=O)N[C@@H](CCC(N)=O)C(=O)N[C@@H](CCCCN)C(=O)N[C@H](C(=O)N1CCC[C@H]1C(=O)NCC(=O)NCC(=O)NCC(=O)NCC(=O)NCC(=O)N[C@@H](CCC(N)=O)C(=O)N[C@@H](C)C(=O)N[C@@H](CCCNC(=N)N)C(=O)N[C@@H](CCCNC(=N)N)C(=O)N[C@@H](CCCNC(=N)N)C(=O)N[C@@H](CCC(N)=O)C(=O)N[C@@H](COP(=O)(O)O)C(=O)N[C@H](C(=O)N[C@@H](CC(C)C)C(=O)N[C@@H](CC(N)=O)C(=O)N[C@@H](CC(C)C)C(=O)N[C@@H](CCSC)C(=O)N[C@H](C(N)=O)[C@@H](C)O)C(C)C)[C@@H](C)O)C(C)C)[C@@H](C)CC is reported as -6.1 kcal/mol (14-3-3 protein beta/alpha (Homo sapiens, UniProt P31946); binding, ITC; 37 °C, added: CFTR R-domain peptide).
